Published values collected from several papers.
Every numbered part comes from another study and shows a few of its results, in no order. Changes are numbered by the printed parent chain.

Block 1
Target: Sal-like protein 4, full length isoform B (SALL4, Homo sapiens, UniProt Q9UJQ4-2, residues 1-616)
Technique: universal PBM
Molecule type: double-stranded DNA, one strand shown
Medium: in vitro
Tested at: not given
Notes: 8-mer, flanks averaged, mean of replicates
Direction: higher = stronger binding
Target sequence (chain): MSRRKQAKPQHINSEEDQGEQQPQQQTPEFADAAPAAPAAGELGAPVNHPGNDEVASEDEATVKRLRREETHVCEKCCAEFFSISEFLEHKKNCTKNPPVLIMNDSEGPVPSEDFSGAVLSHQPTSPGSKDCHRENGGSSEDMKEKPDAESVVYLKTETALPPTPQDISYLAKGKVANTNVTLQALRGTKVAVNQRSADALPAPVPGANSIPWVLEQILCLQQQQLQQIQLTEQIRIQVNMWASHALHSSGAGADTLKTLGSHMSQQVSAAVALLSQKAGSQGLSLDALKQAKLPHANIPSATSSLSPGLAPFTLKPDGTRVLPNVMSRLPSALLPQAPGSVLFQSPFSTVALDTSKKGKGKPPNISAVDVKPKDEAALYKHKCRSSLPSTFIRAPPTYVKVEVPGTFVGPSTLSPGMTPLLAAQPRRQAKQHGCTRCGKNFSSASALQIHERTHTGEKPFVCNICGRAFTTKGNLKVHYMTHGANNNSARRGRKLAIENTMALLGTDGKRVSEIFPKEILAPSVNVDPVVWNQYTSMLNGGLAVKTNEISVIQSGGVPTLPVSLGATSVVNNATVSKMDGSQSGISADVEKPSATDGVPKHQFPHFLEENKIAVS
The E-score of `CCCCAATC` is reported as -0.146.
For `ACCGAAAG`, the E-score was 0.00162.
`ATGAGATG` gave an E-score of -0.0198.
With `ATTAATAG` the E-score was 0.418.
`AACCGATT` has an E-score of 0.0711.
`CGCAAAGC` gave an E-score of -0.143.

Block 2
Target: CCND2, cyclin fold, Cln2 fusion (human)
Technique: yeast growth competition, sequencing
Medium: yeast
Notes: weak parent motif
Baseline: not given
Direction: higher = stronger binding
Starting sequence: WEE1 docking peptide (human); HKTFRKLRLFDTP; partner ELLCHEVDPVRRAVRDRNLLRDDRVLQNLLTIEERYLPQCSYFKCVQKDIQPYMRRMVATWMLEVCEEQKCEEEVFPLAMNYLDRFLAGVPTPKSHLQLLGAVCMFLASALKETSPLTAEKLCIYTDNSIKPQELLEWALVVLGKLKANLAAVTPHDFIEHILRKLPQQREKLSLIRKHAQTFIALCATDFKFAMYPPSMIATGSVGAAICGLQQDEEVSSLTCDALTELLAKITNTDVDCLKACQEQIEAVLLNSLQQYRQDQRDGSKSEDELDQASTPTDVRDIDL
For `IKTFRKLRLFDTP [H1I]`, “normalised enrichment score” read 0.817.
For `HKTFRKLRLFDEP [T12E]`, “normalised enrichment score” read 0.269.
For `HKTFRKLRLVDTP [F10V]`, “normalised enrichment score” read -0.0551.
`HKTCRKLRLFDTP [F4C]`: “normalised enrichment score” 0.159.
`HKTARKLRLFDTP [F4A]`: “normalised enrichment score” 0.289.
For `HKWFRKLRLFDTP [T3W]`, “normalised enrichment score” read 0.357.
Under “normalised enrichment score”, `HKTSRKLRLFDTP [F4S]` is recorded as 0.211.

Block 3
Target: Fragile X messenger ribonucleoprotein 1, C-terminal low-complexity region (Fmr1, Mus musculus, UniProt P35922)
Technique: RNA Bind-n-Seq
Molecule type: RNA
Medium: in vitro
Tested at: 200 nM
Notes: whole 134-nt RNA, ends assumed
Added: 150 mM LiCl
Baseline: input library
Direction: higher = stronger binding
Each molecule: 7-deaza-guanosine replaces G
Constant ends, left off below: GGGAGUUCUACAGUCCGACGAUC … UGGAAUUCUCGGGUGUCAAGG
For `UAACUUUAGAGGAGGAUCUGAUGGAUAUGGCAGUGGACGUGGAUUUGGGGAUGGCUAUAAUGGGUAAGGAGGAGGACCUGGAGGUGGCAA`, the log2 enrichment was 0.318.
The log2 enrichment of `UUCCCUCUGUUUUAUUUUUCCCCCGUGUGUCCCUACUAUGGUCAGAAAGCCUGUUGUGUCCACCAUCUCCAAAGGAGGUUACCUGCAGGG` is reported as 1.6.
For `UCCUGUGCUACACAUCGUAUGUACCGAAUCGGGGUUUUUUUGGGGUUUGGGGAAAGGGGAAAGUAUUAUGUUACGCCGUUCGGAUCUGCA`, the log2 enrichment was -1.06.
For `GUCCUGUGCUACACAUCGUAUGUACCGAAUCGGGGAGGGGUUUUUGGGGAAAAAGGGGAAAGUAUUAUGUUACGCCGUUCGGAUCUGCAC`, the log2 enrichment was 0.243.
The log2 enrichment of `UAACUUUAGAGAAGGAUCUGAUGGAUAUGGCAGUGGACGUGGAUUUGGGGAUGGCUAUAAUGGGUAUGGAGGAGGACCUGGAGGUGGCAA` is reported as 0.058.
The log2 enrichment of `UCAAGUCCUGUGCUACACAUCGUAUGUACCGAAUCGGUGGAAAAAGGUUUUUGGAAAGUAUUAUGUUACGCCGUUCGGAUCUGCACUUCC` is reported as -1.55.
With `UUUGAAGAUCAGCUUCAGCAAUGGUUGUCUGAAGACUCAGGAGCAUUUACGGAUUUAACUUCCCUUCCCCUCUAUCUUCCUCAGACUCUA` the log2 enrichment was 0.766.
`GUCCUGUGCUACACAUCGUAUGUACCGAAUCGGUUUUUUGGGUUUUUUGGUUUUUUGGAAAGUAUUAUGUUACGCCGUUCGGAUCUGCAC` has a log2 enrichment of -1.57.

Other studies, line by line
`PhoQ, residues 284 288 289 292 302 303 SLSVQF` gave a fold induction of 12.5 (PhoP, residues 12 14 15 18 19 HLGGL (Escherichia coli, UniProt P23836); Sort-seq, refers to: YFP reporter; E. coli; PhoQ-PhoP variant library, added: 10 µM Mg2+; baseline: high Mg2+ state, higher = stronger signaling).

Repeated from above (other studies, line by line):
`PhoQ, residues 284 288 289 292 302 303 SLSVQF` gave a fold induction of 12.5 (PhoP, residues 12 14 15 18 19 HLGGL (Escherichia coli, UniProt P23836); Sort-seq, refers to: YFP reporter; E. coli; PhoQ-PhoP variant library, added: 10 µM Mg2+; baseline: high Mg2+ state, higher = stronger signaling).
